Experimental data gathered from unrelated publications.
Compare with care: the assays were run in different laboratories. ± marks the error that the study gave.
SLC5A1: Sodium/glucose cotransporter 1 (SLC5A1, Homo sapiens, UniProt P13866)
Sequence of UniProt P13866 (whole entry, looked up): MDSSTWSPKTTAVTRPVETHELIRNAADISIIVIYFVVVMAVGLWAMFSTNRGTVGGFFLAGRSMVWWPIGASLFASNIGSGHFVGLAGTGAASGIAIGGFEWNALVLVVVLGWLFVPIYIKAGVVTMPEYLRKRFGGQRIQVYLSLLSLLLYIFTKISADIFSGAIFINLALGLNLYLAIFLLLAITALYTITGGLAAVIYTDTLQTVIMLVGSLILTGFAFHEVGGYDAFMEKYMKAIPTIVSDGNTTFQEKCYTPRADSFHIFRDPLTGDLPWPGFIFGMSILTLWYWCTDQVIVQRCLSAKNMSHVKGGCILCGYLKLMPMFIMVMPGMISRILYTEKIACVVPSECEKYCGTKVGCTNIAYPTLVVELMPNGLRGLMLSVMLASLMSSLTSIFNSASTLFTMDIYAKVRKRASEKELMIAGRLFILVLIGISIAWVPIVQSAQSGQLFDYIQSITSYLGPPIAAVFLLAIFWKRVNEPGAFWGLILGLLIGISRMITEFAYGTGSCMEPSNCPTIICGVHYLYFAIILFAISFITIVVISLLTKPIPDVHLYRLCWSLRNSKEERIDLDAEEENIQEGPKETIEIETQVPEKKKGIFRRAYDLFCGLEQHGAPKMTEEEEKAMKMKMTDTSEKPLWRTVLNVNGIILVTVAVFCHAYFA
SLCO1B1: Solute carrier organic anion transporter family member 1B1 (SLCO1B1, Homo sapiens, UniProt Q9Y6L6)
Sequence of UniProt Q9Y6L6 (whole entry, looked up): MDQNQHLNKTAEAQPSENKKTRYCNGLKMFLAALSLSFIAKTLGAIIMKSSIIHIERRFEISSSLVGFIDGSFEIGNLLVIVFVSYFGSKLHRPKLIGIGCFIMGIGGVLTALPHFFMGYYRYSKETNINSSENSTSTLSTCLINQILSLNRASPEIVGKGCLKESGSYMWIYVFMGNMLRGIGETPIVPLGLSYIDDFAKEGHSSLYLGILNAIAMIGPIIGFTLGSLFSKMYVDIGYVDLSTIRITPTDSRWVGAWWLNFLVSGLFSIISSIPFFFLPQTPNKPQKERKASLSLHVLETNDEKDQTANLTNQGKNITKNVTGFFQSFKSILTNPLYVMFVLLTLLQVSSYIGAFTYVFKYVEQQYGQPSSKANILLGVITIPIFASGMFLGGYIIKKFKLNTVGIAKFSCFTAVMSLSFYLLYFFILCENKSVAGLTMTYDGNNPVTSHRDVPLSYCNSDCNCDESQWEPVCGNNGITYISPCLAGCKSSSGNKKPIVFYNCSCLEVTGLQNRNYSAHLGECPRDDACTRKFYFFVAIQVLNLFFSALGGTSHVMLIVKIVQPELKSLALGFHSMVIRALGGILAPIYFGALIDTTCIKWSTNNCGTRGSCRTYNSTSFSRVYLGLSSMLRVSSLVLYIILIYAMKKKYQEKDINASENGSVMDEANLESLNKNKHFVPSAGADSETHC
CYP3A4 S18F: Cytochrome P450 3A4 (CYP3A4, Homo sapiens, UniProt P08684, S18F)
Sequence of UniProt P08684 (whole entry, unmodified, looked up): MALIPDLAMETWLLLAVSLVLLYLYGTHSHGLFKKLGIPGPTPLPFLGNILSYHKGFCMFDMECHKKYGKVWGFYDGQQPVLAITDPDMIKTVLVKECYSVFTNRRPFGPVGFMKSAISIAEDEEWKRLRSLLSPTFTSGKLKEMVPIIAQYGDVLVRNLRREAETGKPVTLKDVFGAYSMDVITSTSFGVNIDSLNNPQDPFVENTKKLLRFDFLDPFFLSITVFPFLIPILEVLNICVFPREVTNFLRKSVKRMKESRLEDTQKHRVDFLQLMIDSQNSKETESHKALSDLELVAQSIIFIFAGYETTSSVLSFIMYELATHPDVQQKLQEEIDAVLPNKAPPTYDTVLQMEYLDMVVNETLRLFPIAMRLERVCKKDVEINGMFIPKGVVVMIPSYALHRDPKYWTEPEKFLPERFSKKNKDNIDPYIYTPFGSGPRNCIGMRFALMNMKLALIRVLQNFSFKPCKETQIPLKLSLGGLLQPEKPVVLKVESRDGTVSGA
Sequence of UniProt P11509 (whole entry, looked up): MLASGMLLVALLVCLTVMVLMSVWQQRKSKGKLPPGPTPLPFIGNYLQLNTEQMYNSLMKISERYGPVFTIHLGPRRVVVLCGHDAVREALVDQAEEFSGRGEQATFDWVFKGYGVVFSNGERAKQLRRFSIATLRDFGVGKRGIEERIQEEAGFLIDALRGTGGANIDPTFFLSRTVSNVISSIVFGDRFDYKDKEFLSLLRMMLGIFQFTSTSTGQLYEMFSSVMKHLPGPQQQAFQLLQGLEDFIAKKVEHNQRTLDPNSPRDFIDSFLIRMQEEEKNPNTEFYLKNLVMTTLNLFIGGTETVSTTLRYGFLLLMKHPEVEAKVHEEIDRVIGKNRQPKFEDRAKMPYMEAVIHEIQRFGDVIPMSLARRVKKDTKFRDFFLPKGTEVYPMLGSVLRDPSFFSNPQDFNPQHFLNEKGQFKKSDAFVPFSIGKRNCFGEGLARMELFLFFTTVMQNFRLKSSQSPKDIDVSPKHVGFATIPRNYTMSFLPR
Sequence of UniProt P02769 (whole entry, looked up): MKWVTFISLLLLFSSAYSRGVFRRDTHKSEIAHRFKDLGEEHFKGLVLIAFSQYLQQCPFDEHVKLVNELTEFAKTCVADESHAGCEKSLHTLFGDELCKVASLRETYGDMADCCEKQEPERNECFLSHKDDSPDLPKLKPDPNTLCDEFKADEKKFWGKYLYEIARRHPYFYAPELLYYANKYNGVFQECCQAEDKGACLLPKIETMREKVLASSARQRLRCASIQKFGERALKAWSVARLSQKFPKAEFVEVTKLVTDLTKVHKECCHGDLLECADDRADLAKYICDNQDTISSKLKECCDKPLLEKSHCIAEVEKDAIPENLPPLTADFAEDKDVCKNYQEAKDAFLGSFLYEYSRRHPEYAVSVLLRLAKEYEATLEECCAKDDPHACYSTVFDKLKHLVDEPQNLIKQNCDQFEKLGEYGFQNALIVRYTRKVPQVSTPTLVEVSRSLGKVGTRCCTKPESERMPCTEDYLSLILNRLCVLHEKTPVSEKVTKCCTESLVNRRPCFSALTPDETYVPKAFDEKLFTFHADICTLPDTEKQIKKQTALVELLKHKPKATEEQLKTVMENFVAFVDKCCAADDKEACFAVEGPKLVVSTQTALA
Sequence of UniProt Q9UNU6 (whole entry, looked up): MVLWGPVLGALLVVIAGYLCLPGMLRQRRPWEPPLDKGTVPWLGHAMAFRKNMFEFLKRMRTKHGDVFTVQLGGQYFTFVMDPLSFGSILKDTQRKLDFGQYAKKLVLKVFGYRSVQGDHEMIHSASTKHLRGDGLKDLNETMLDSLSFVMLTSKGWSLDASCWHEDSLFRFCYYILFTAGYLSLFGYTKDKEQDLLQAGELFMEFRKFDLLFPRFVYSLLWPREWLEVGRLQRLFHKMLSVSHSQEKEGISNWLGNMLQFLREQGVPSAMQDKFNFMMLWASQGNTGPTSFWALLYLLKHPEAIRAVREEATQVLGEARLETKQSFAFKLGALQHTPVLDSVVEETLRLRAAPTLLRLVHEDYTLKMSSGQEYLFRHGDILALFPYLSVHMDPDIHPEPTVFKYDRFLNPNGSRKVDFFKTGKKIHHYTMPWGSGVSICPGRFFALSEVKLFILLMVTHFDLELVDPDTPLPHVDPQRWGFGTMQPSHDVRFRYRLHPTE

OC[C@H]1O[C@@H](Oc2cc3c(O)cc(O)cc3[o+]c2-c2ccc(O)c(O)c2)[C@H](O)[C@@H](O)[C@@H]1O — transport rate reduction (SLC5A1; Caco-2 BBe1, SLC5A1 siRNA knockdown; 50 µM, 4 h; reference: scrambled siRNA over knockdown): 6.35 fold
CC(=O)c1cc(C(=O)N[C@@H](C)Cn2ccc(-c3ccc(C#N)c(Cl)c3)n2)[nH]n1 — IC50 (SLCO1B1; uptake, inhibitor; HEK (transfected); 1 h preincubation, together with: pravastatin substrate): 3 µM
C#CCOc1ccc2ccc(=O)oc2c1 — KI (human CYP3A4; enzyme inactivation, inactivator; reconstituted system; together with: BFC O-debenzylation substrate): 112 µM
OC(Cn1cncn1)(Cn1cncn1)c1ccc(F)cc1F — remaining activity (7-alpha-hydroxycholest-4-en-3-one 12-alpha-hydroxylase (Homo sapiens, UniProt Q9UNU6); 80 µM, together with: 7α-hydroxycholest-4-en-3-one; reference: no inhibitor): no inhibition
Cn1c(=O)[nH]c2ncn(C)c2c1=O — glucuronide metabolic ratio (UDP-glucuronosyltransferases; human cirrhosis patients; reference: without cirrhosis): decreased
CC(=O)[C@H]1CC[C@H]2[C@@H]3CCC4=CC(=O)CC[C@]4(C)[C@H]3CC[C@]12C — NADPH oxidation rate (CYP3A4 S18F; substrate; nanodiscs with CPR; one substrate bound): 171 nmol/nmol P450/min
COCCc1ccc(OCC(O)CNC(C)C)cc1 (stereo not drawn) — unbound fraction (Albumin (ALB, Bos taurus, UniProt P02769); ultrafiltration; Bos taurus, albumin solution; 1 µg/mL, 60 min, together with: atractylenolide III 0.1 µg/mL): 0.69
C=CC(=O)N1CCC([C@@H]2CCNc3c(C(N)=O)c(-c4ccc(Oc5ccccc5)cc4)nn32)CC1 — remaining activity (SLCO1B1; transport, item: estradiol-17β-glucuronide uptake; HEK293 transfected; 1 µM; reference: vehicle): 87.9 ± 5.7%
Cc1coc2c1CC[C@@H](C)C2 — remaining activity (Cytochrome P450 2A6 (CYP2A6, Homo sapiens, UniProt P11509); inactivator; 5 µM, 10 min, pH 7.4, no NADPH; reference: time zero): 100%
C[C@@H]1O[C@@H](OC[C@H]2O[C@@H](Oc3c(-c4ccc(O)c(O)c4)oc4cc(O)cc(O)c4c3=O)[C@H](O)[C@@H](O)[C@@H]2O)[C@H](O)[C@H](O)[C@H]1O — transport rate reduction (SLC5A1; Caco-2 BBe1, SLC5A1 siRNA knockdown; 50 µM, 4 h; reference: scrambled siRNA over knockdown): 2.6 fold
NC(=O)N1c2ccccc2C=Cc2ccccc21 — NADPH oxidation rate (CYP3A4 S18F; substrate; nanodiscs with CPR; one substrate bound): 195 nmol/nmol P450/min
CN(C)Cc1cc(OCCC[18F])ccc1Sc1ccccc1N — tissue uptake (SERT; male Sprague Dawley rat, control, cortex; intravenous, 60 min): 0.49 ± 0.12 %ID/g

A few entries again:
COCCc1ccc(OCC(O)CNC(C)C)cc1 (stereo not drawn) — unbound fraction (Albumin (ALB, Bos taurus, UniProt P02769); ultrafiltration; Bos taurus, albumin solution; 1 µg/mL, 60 min, together with: atractylenolide III 0.1 µg/mL): 0.69
